Assay results collected from several papers.
Lines come from different studies, so protocols differ. Values joined by “and” are separate records of one study, mostly repeats; a detail may differ. Numbers after ± are the reported error. Values after ≈ are worked out from the molar mass of the structure shown.

`O=C(Nc1cnccc1-c1ccc([18F])cc1)c1ccnc(NC(=O)C2CC2)c1` has an SUV of 0.72 (ex vivo gamma counting; GSK-3β transgenic mice, late-stage, bone; intravenous, 120 min, mean, P-gp inhibitor pretreatment, added: tariquidar 15 mg/kg iv).
For `OC1(C(F)(F)F)CCN(c2nc(Nc3ccnc(C(F)(F)F)c3)nc(-c3cccc(C(F)(F)F)n3)n2)C1` (centres unmarked), the MRT(0-inf) was 25.7 ± 5.35 h (Sprague-Dawley rat, both sexes, plasma; oral gavage, 5 mg/kg, day 14).
The oral bioavailability of `CN1CC[C@@H](COc2cnc(C#N)cc2-c2ccn3nc(NC(=O)C4CC4)cc3c2)C1` is reported as 18% (rat, Sprague-Dawley, male, plasma; oral, 5 mg/kg).
The SUV of `O=C(Nc1cnccc1-c1ccc([18F])nc1)c1ccnc(NC(=O)C2CC2)c1` is reported as 1.63 (mice, transgenic, GSK-3β, early-stage, small intestine; intravenous, dose not given, 120 min).
The tracer uptake of `CN([O-])C(=O)CN1CCNCCN(CC(=O)N(C)[O-])CC1.[89Zr+4]` is reported as 0.48 %ID/g (mouse, lung; intravenous, 1 h).
`CN1CCC[C@]1(C)/C=C/S(=O)(=O)NC(=O)Nc1c2c(cc3c1CC(O)C3)CCC2` (some centres unmarked) gave an AUC(0-t) of 37700 ng·h/mL (human, plasma; oral, 12.5 mg twice daily of parent drug, day 14, metabolite of dosed drug).
`CC(C)C[C@H](NC(=O)[C@H](CCCN)NC(=O)CNC(=O)[C@@H](NC(=O)[C@H](C)NC(=O)[C@@H]1CSCSC[C@H](NC(=O)CC[C@H](N)C(=O)O)C(=O)N[C@@H](CC(N)=O)C(=O)N[C@@H]([C@@H](C)O)C(=O)N[C@@H](C)C(=O)N[C@@H]([C@@H](C)O)C(=O)N1)[C@@H](C)O)C(=O)N[C@@H](C)C(=O)N[C@@H](CCC(=O)O)C(=O)N[C@@](C)(Cc1ccccc1)C(=O)N[C@@H](CC(C)C)C(=O)N[C@H](C(=O)N[C@@H](CCCNC(=N)N)C(=O)N[C@@H](CO)C(=O)N[C@@H](CO)C(=O)N[C@@H](CC(N)=O)C(=O)N(C)[C@@H](CC(N)=O)C(=O)N[C@@H](Cc1ccccc1)C(=O)NCC(=O)N1CCC[C@H]1C(=O)N[C@@H](CCCCNC(=O)CC[C@H](NC(=O)CC[C@H](NC(=O)CCCCCCCCCCCCCCCCCCC(=O)O)C(=O)O)C(=O)O)C(=O)N[C@@H](CC(C)C)C(=O)N1CCC[C@H]1C(=O)N1CCC[C@H]1C(=O)N[C@H](C(=O)N[C@@H](CCC(=O)O)C(=O)N[C@H](C(=O)NCC(=O)N[C@@H](CO)C(=O)N[C@@H](CC(N)=O)C(=O)N[C@H](C(=O)N[C@@H](Cc1ccc(O)cc1)C(N)=O)[C@@H](C)O)C(C)C)[C@@H](C)O)C(C)C` gave an AUC(0-tlast) of 605000 ng·h/mL (healthy human, plasma; subcutaneous, 12 mg single dose, geometric LS mean).
For `C[C@@]1(c2nc(-c3ccc(F)c4cn[nH]c34)no2)CCCN(C(=O)c2ccc(F)nc2)C1`, “conditioned place preference score” read 60.7 and 33.1 and -173 and 2.48 and 23.7 (mouse; intraperitoneal, 20 mg/kg; direction not given).
`Cl.NCc1ccc2c(c1)CN(C1CCC(=O)NC1=O)C2=O` (centres unmarked) has a remaining compound of less than 1% (male Beagle dog, whole blood; 3 h).
For `O=C(O)CCCOc1ccc([18F])cc1-c1cc(-c2ccccc2C(F)(F)F)n(-c2ccccc2)n1`, the tissue uptake was 0.61 ± 0.1 %ID/g (mouse, blood; intravenous, dose not given, 5 min).
`Cc1cc(-c2ccc(C(=O)[C@@H]3CCCC[C@H]3C(=O)Nc3cnn4c3C(=O)NCC4)cc2)[nH]n1`: “cumulative recovery of radioactivity” 79.3% (human, faeces; oral, 200 mg, 0-288 h; baseline: dose).
The AUC(0-t) of `CC[C@H](C)[C@@H]1NC(=O)[C@H](Cc2ccc(O)cc2)NC(=O)CCCSC[C@@H](C(=O)N(CC(=O)N[C@@H](CC(C)C)C(=O)NCC(N)=O)Cc2ccc(F)cc2)NC(=O)[C@H](CC(N)=O)NC(=O)[C@H](CCC(N)=O)NC1=O` is reported as 0.114 ng·h/mL (healthy human, plasma; intranasal, 400 µg every 3 h, after first dose).
The Lymphocytes of `COc1ccc2c(c1)CCn1c[n+]3c(c1-2)-c1ccc(OC)cc1CC3` is reported as 6.18 ± 7.97% (female NSG mice, blood; 6 mg/kg, day 20, 5 days per week).
For `C=CC(=O)Nc1cc(Nc2nccc(-c3cn(C)c4ccccc34)n2)c(OC)cc1N(C)CCNC`, the recovery was 59.5% (storage stability; human dried blood spot; 10 d, on ice, LQC level).
For `CCCCN1C(=O)c2cccc3c(NCCCCCCCCCCN4CCOCC4)ccc(c23)C1=O`, “molar extinction coefficient” read 13200 M⁻¹ cm⁻¹ (ethyl acetate).
With `O=c1c2ccccc2[se]n1CCCCCCn1[se]c2ccccc2c1=O` the solubility was 0.8 ± 0.15 µg/mL (≈ 1.67 µM) (shake-flask, RP-HPLC; phosphate-buffered saline; 24 h, pH 7.4, 25 °C).
`CN1CCCNC(=O)c2cccc(c2)C(=O)NCCCN(C)CCCNc2cccc3c2C(=O)c2cccc(c2C3=O)NCCC1` gave an AST of 153 ± 16.2 U/L (nude mice, serum; dose not given, 10 days).
`C(=N\Nc1nnc(N/N=C/c2ccccc2)c2ccccc12)/c1ccccc1` gave a haemolysis of 13.8% (haemolysis; human; 10 mM, 45 min).
`COCC1CN(C2CCN(c3cc(OC)c(Nc4ncc(Br)c(Nc5ccc6c(c5P(C)(C)=O)OCCO6)n4)cc3C)CC2)C1`: “Tmax at steady state” 1.49 h (EGFR-mutant NSCLC patients, plasma; oral, 60 mg multiple doses, median).
`Cc1nc(N)nc2c1C(=O)N[C@@H](c1ccc(F)cc1-c1cccc(O[11CH3])n1)C2` gave a tracer uptake of 3.4 ± 0.5 %ID (ex vivo biodistribution; healthy mice, kidneys; 60 min post-injection, baseline, vehicle pre-treatment).
For `CCC(=O)N(C)c1ccc(Cl)c(Cl)c1`, the plasma concentration was 44.6 ng/mL (female C57BL/6 mice; oral, 10 mg/kg, 2 h).
Under “molar absorption coefficient”, `C=Cc1ccccc1[B-]12OC(=O)C(c3ccccc3)=N[N+]1=Cc1ccc(N(CC)CC)cc1O2` (centres unmarked) is recorded as 57000 M⁻¹ cm⁻¹ (toluene).
`CCCCN1C(=O)c2cccc3c(NCCCCCCN4CCOCC4)ccc(c23)C1=O`: “fluorescence quantum yield” 0.99 (DMSO).
The MRT(0-t) of `C=C(NC(=O)c1csc(-c2nc3c(cc2O)-c2nc(cs2)C(=O)NC(C(C)O)C(=O)NC(=C(C)OC)c2nc(cs2)C(=O)NC2c4nc(cs4)C(=O)NC(COC(=O)c4c5c6c(cccc6n4O)COC(=O)C(OC4CC(C)(O)C(N(C)C)C(C)O4)C2OC5)c2nc-3cs2)n1)C(N)=O` (centres unmarked) is reported as 4.7 h (ICR mice, Streptococcus pneumoniae ATCC 49169 infected, immunocompromised, blood; intravenous, 32 mg/kg/day twice daily).
For `CC[C@H](C)[C@H](NC(=O)[C@H](CC(N)=O)NC(=O)[C@@H](N)CCSC)C(=O)N[C@@H](CCSC)C(=O)N[C@@H](CC(=O)O)C(=O)N[C@@H](Cc1ccccc1)C(=O)N[C@@H](CC(N)=O)C(=O)N[C@H](C(=O)N[C@@H](CCCCN)C(=O)N[C@@H](CCCCN)C(=O)N[C@@H](CC(C)C)C(=O)N[C@@H](C)C(=O)N[C@@H](C)C(=O)N[C@@H](CC(=O)O)C(=O)N[C@@H](C)C(=O)NCC(=O)N[C@H](C(=O)N[C@@H](Cc1c[nH]c2ccccc12)C(=O)N[C@@H](CC(C)C)C(=O)N[C@@H](CO)C(=O)N[C@@H](CCCNC(=N)N)C(=O)N[C@@H](C)C(=O)N[C@H](C(=O)N[C@@H](CCC(N)=O)C(=O)N[C@@H](Cc1ccccc1)C(=O)N[C@H](C(=O)N[C@@H](CCC(=O)O)C(=O)N[C@@H](CCC(=O)O)C(=O)N[C@@H](CCCCN)C(=O)N[C@@H](CC(C)C)C(=O)NCC(=O)N[C@@H](CCC(N)=O)C(=O)N[C@@H](C)C(N)=O)[C@@H](C)O)C(C)C)[C@@H](C)O)C(C)C`, the fractional helicity was 10.2% (circular dichroism; phosphate buffer; pH 7.4).
For `C=CC(=O)N1CCCC(n2c(=O)c3ncccc3n(Cc3ccc(Oc4ccccc4)cc3)c2=O)C1` (centres unmarked), the hepatocyte CLint was 14.2 µL/min/10⁶ cells (metabolic stability; male beagle dog, hepatocytes; 1 µM).
`CC(C)[C@H](NC(=O)[C@H](Cc1c[nH]c2ccccc12)NC(=O)[C@H](CCCNC(=N)N)NC(=O)[C@H](CCCNC(=N)N)NC(=O)[C@@H](NC(=O)[C@@H](NC(=O)[C@H](CCCNC(=N)N)NC(=O)[C@@H](NC(=O)[C@@H](NC(=O)[C@H](CCCNC(=N)N)NC(=O)[C@H](CCCNC(=N)N)NC(=O)[C@@H](NC(=O)[C@H](Cc1c[nH]c2ccccc12)NC(=O)[C@H](CCCNC(=N)N)NC(=O)[C@H](CCCNC(=N)N)NC(=O)[C@@H](NC(=O)[C@H](CCCNC(=N)N)NC(=O)[C@H](CCCNC(=N)N)NC(=O)[C@@H](NC(=O)[C@H](Cc1c[nH]c2ccccc12)NC(=O)[C@H](CCCNC(=N)N)NC(=O)[C@@H](N)CCCNC(=N)N)C(C)C)C(C)C)C(C)C)C(C)C)C(C)C)C(C)C)C(C)C)C(=O)N[C@@H](CCCNC(=N)N)C(=O)N[C@@H](CCCNC(=N)N)C(=O)O` gave a chloride of 100 mEq/L (CD1 mouse, plasma; intravenous, 15 mg/kg, 16 h, [14C]-labelled compound).
`O=C(NS(=O)(=O)c1cccs1)c1cc2ccccc2n1Cc1ccc(Br)c2ccccc12` has a body weight of 27.6 g and 25.4 g and 26.6 g and 26.8 g and 28.2 g (KM mouse, chronic hyperuricaemia model; dose not given, day 3).
`CCC(C(=O)Nc1ccc(C(N)=O)c(F)c1)n1cc(OC)c(-c2cc(Cl)ccc2-n2cc(C(F)(F)F)nn2)cc1=O` (centres unmarked): “mild drug-related adverse events” 0% (healthy male humans; 50 mg, maximum intensity, added: omeprazole).
`CCCCN1C(=O)c2cccc3c(NCCCCCCCCN4CCOCC4)ccc(c23)C1=O` — result for “molar extinction coefficient”: 12200 M⁻¹ cm⁻¹ (DMF).
With `[123I]c1ccc2nc(-c3ccc(-n4ccnn4)nc3)cn2c1` the tracer uptake was 0.073 %ID/g (male Wistar rat, heart; intravenous, 4 MBq, 1 h).
`COc1cccc(OC)c1-c1cc(C(=O)NC2(C(=O)O)C3CC4CC(C3)CC2C4)nn1-c1ccc(C(=O)NCCNC(=O)[C@H](CCCCNC(=O)[C@H](CC(C)C)NC(=O)C2OC2C(=O)O)NC(=O)CN2CCN(CC(=O)[O-])CCN(CC(=O)[O-])CCN(CC(=O)[O-])CC2)cc1C(C)C.[177Lu+3]` (mixture of isomers) has a tissue uptake of 1.3 %ID/g (mouse, HT-29 xenograft, liver; 4 h post injection).
For `CCCCN1C(=O)c2cccc3c(NCCN4CCOCC4)ccc(c23)C1=O`, “molar extinction coefficient” read 7620 M⁻¹ cm⁻¹ (DMF).
For `O=C([O-])CN1CCN(CC(=O)[O-])CCN(C(CO)C(O)CO)CCN(CC(=O)[O-])CC1.[Dy+3]` (centres unmarked), “total plasma clearance” read 1.83 mL/min/kg (ICP-MS; female cynomolgus monkey, plasma; intravenous bolus, 0.1 mmol/kg, lanthanide mixture, geometric mean).
`C=CC(=O)Nc1cc(Nc2nccc(-c3c[nH]c4ccccc34)n2)c(OC)cc1N(C)CCN(C)C` has a recovery of 87.7% (storage stability; human dried blood spots; 72 h, -80 °C, LLOQ level).
For `CN(O)C(=O)CCC(=O)NCCCN(CCCCN(CCCNC(=O)CCC(=O)N(C)O)C(=O)CCC(=O)N(C)O)C(=O)CCC(=O)N(C)O.[89Zr]`, the intact complex was 83.9 ± 1.6% (radio-TLC; aqueous buffer; 1 d, pH 5, 37 °C, 89Zr-labelled complex, added: DTPA 1000-fold excess).
`CCCCN1C(=O)c2cccc3c(NCCCCN4CCOCC4)ccc(c23)C1=O` — result for “molar extinction coefficient”: 12000 M⁻¹ cm⁻¹ (water; pH 6.0).
`C=CC(=O)Nc1cccc(Cn2ncc3cnc(Nc4cnn(CCOC)c4)nc32)c1` has a remaining compound of 80.5% (dog, Beagle, both sexes, whole blood; 5 µM, 30 min).
`CCCC[C@H](OC(C)=O)c1ccccc1C(=O)O` gave an AUC(0-inf) of 4160 ± 794 ng·h/mL (Sprague-Dawley rats, both sexes, whole blood; intravenous, 5 mg/kg single dose).
`CCCCN1C(=O)c2cccc3c(NCCCCCN4CCOCC4)ccc(c23)C1=O` — result for “fluorescence quantum yield”: 1.19 (acetonitrile).
Under “oxidation peak potential”, `CCc1occc(=O)c1[O-].[Cl-].[W+4].c1cc[cH-]c1.c1cc[cH-]c1` is recorded as 0.67 to 0.73 V (cyclic voltammetry; acetonitrile; baseline: Ag/AgCl).

Excerpt of the above:
`COc1cccc(OC)c1-c1cc(C(=O)NC2(C(=O)O)C3CC4CC(C3)CC2C4)nn1-c1ccc(C(=O)NCCNC(=O)[C@H](CCCCNC(=O)[C@H](CC(C)C)NC(=O)C2OC2C(=O)O)NC(=O)CN2CCN(CC(=O)[O-])CCN(CC(=O)[O-])CCN(CC(=O)[O-])CC2)cc1C(C)C.[177Lu+3]` (mixture of isomers) has a tissue uptake of 1.3 %ID/g (mouse, HT-29 xenograft, liver; 4 h post injection).
For `CCCCN1C(=O)c2cccc3c(NCCN4CCOCC4)ccc(c23)C1=O`, “molar extinction coefficient” read 7620 M⁻¹ cm⁻¹ (DMF).
For `O=C([O-])CN1CCN(CC(=O)[O-])CCN(C(CO)C(O)CO)CCN(CC(=O)[O-])CC1.[Dy+3]` (centres unmarked), “total plasma clearance” read 1.83 mL/min/kg (ICP-MS; female cynomolgus monkey, plasma; intravenous bolus, 0.1 mmol/kg, lanthanide mixture, geometric mean).
`C=CC(=O)Nc1cc(Nc2nccc(-c3c[nH]c4ccccc34)n2)c(OC)cc1N(C)CCN(C)C` has a recovery of 87.7% (storage stability; human dried blood spots; 72 h, -80 °C, LLOQ level).
